Assay results from different studies.
Each line is one published result; not all experiments were run side by side. Numbers after ± are the reported error.

Compound = C[C@H](O)[C@@H](NC(=O)[C@H]1CCCN1C(=O)[C@@H](CCCCN)NC(=O)[C@@H](CO)NC(=O)[C@@H](Cc1ccc(O)cc1)NC(=O)[C@@H](CC(N)=O)NC(=O)CCOCCOCCOCCNC(=O)CN1CCN(CC(=O)O)CCN(CC(=O)O)CCN(CC(=O)O)CC1)C(=O)N[C@H](CC(=O)O)C(=O)N[C@H](CCCNC(=N)N)C(=O)N[C@H](CCC(N)=O)C(=O)N[C@H](Cc1ccc(O)cc1)C(=O)N[C@H](Cc1c[nH]cn1)C(=O)N[C@H](Cc1ccccc1)C(N)=O [gallium-68 labelled]; system = BALB/c nude mice U-87 MG tumour, brain; conditions = intravenous, 1.85 MBq, 2 h, radiolabelled; tissue uptake = 0.02 ± 0.01 %ID/g
Compound = CCCC[C@H]1C(=O)N(C)[C@@H](CCCC)C(=O)N[C@@H](CCCNC(=O)CN2CCN(CC(=O)O)CCN(CC(=O)O)CCN(CC(=O)O)CC2)C(=O)N[C@H](C(=O)NCC(N)=O)CSCC(=O)N[C@@H](Cc2ccc(O)cc2)C(=O)N(C)[C@@H](C)C(=O)N[C@@H](CC(N)=O)C(=O)N2CCC[C@H]2C(=O)N[C@@H](Cc2c[nH]cn2)C(=O)N[C@@H](CC(C)C)C(=O)N(C)CC(=O)N[C@@H](Cc2c[nH]c3ccccc23)C(=O)N[C@@H](CO)C(=O)N[C@@H](Cc2c[nH]c3ccccc23)C(=O)N1C [gallium-68 labelled]; system = NOD/SCID mice with CHO-hPD-L1 xenograft, spleen; conditions = 30 min post injection; tissue uptake = 3.27 ± 0.23 %ID/g
Compound = CC[C@H](C)[C@H](NC(=O)[C@H](CCCNC(=N)N)NC(=O)[C@H](CCCCN)NC(=O)[C@H](Cc1ccc(O)cc1)NC(=O)[C@H](CC(=O)O)NC(=O)[C@H](C)NC(=O)CNC(=O)CCOCCOCCOCCNC(=O)CN1CCN(CC(=O)O)CCN(CC(=O)O)CCN(CC(=O)O)CC1)C(=O)N[C@H](C(=O)N[C@@H](CC(C)C)C(=O)N[C@@H](CCCCN)C(=O)N[C@H](C(=O)N[C@@H](CC(N)=O)C(N)=O)C(C)C)[C@@H](C)O [copper-64 labelled]; test = ex vivo gamma counting; system = C57BL/6J male mice, B16-F10 tumour, stomach; conditions = intravenous, 1.85 MBq, 40 min; tissue uptake = 1.06 ± 0.255 %ID/g
Compound = CC[C@H](C)[C@H](NC(=O)[C@@H](Cc1c[nH]c2ccccc12)NC(=O)[C@@H]1CCCN1C(=O)[C@H](CCCCN)NC(=O)[C@H](CCCCN)NC(=O)CCNC(=O)CCNC(=O)CN1CCN(CC(=O)O)CCN(CC(=O)O)CCN(CC(=O)O)CC1)C(=O)N[C@@H](C[Si](C)(C)C)C(=O)O [gallium-68 labelled]; system = nude mouse HT-29 xenograft, intestine; conditions = 90 min; tissue uptake = 0.62 ± 0.31 %ID/g
Compound = CC[C@H](C)[C@H](NC(=O)[C@H](CCCNC(=N)N)NC(=O)[C@H](CCCCN)NC(=O)[C@H](Cc1ccc(O)cc1)NC(=O)[C@H](CC(=O)O)NC(=O)[C@H](C)NC(=O)CNC(=O)CCOCCOCCOCCNC(=O)CN1CCN(CC(=O)O)CCN(CC(=O)O)CCN(CC(=O)O)CC1)C(=O)N[C@H](C(=O)N[C@H](C(=O)N[C@@H](CCCCN)C(=O)N[C@H](C(=O)N[C@@H](CC(N)=O)C(N)=O)C(C)C)C(C)C)[C@@H](C)O [copper-64 labelled]; test = ex vivo gamma counting; system = C57BL/6J male mice, B16-F10 tumour, stomach; conditions = intravenous, 1.85 MBq, 5 min; tissue uptake = 1.6 ± 0.188 %ID/g
Compound = CSCC[C@H](NC(=O)CNC(=O)[C@H](CCCCN)NC(=O)[C@H](CC(C)C)NC(=O)[C@@H]1CCCN1C(=O)[C@H](CO)NC(=O)[C@H](Cc1c[nH]cn1)NC(=O)[C@H](Cc1c[nH]c2ccccc12)NC(=O)[C@H](CCCNC(=N)N)NC(=O)[C@H](CC(C)C)NC(=O)[C@H](CCCNC(=N)N)NC(=O)[C@H](Cc1c[nH]c2ccccc12)NC(=O)[C@H](CS)NC(=O)CCCCCNC(=O)CN1CCN(CC(=O)O)CCN(CC(=O)O)CCN(CC(=O)O)CC1)C(=O)O [copper-64 labelled]; test = PET; system = C57BL/6J mice, B16-F10 tumour, tumor; conditions = intravenous, 18 h; tissue uptake = 1.93 ± 0.1 %ID/g
Compound = CN1Cc2cc(Cl)ccc2-n2c(nnc2C2CCN(c3cccc([18F])n3)CC2)C1; system = C57BL/6 mouse male, liver; conditions = intravenous, 3.7 MBq, 1 min; tissue uptake = 10.7 ± 5.65 %ID/g
Compound = CC[C@H](C)[C@H](NC(=O)[C@H](CCCCN)NC(=O)CNC(=O)[C@H](CC(C)C)NC(=O)[C@H](Cc1ccccc1)NC(=O)[C@H](CCCCN)NC(=O)[C@H](CO)NC(=O)[C@H](Cc1ccccc1)NC(=O)[C@H](Cc1c[nH]c2ccccc12)NC(=O)[C@H](CCC(N)=O)NC(=O)[C@@H](NC(=O)[C@H](Cc1ccccc1)NC(=O)CCCCCNC(=O)CN1CCN(CC(=O)O)CCN(CC(=O)O)CCN(CC(=O)O)CC1)C(C)C)C(=O)N[C@@H](CCC(=O)O)C(=O)N1CCC[C@H]1C(=O)N[C@@H](CC(=O)O)C(=O)N[C@H](C(=O)N[C@@H](CO)C(=O)N[C@@H](CCC(N)=O)C(=O)N[C@H](C(=O)N[C@@H](CCC(N)=O)C(=O)N[C@@H](CC(=O)O)C(=O)N1CCC[C@H]1C(=O)N[C@@H](CC(N)=O)C(=O)N[C@@H](CC(=O)O)C(=O)N[C@@H](CCC(N)=O)C(=O)N[C@@H](Cc1ccc(O)cc1)C(=O)N[C@@H](CCC(=O)O)C(=O)N1CCC[C@H]1C(=O)N[C@@H](Cc1ccccc1)C(=O)O)C(C)C)C(C)C [copper-64 labelled]; system = C57BL/6 mice, male, tumour-free, spleen; conditions = 0.5 h; tissue uptake = 2.72 ± 0.3 %ID/g

Excerpt of the above:
Compound = CN1Cc2cc(Cl)ccc2-n2c(nnc2C2CCN(c3cccc([18F])n3)CC2)C1; system = C57BL/6 mouse male, liver; conditions = intravenous, 3.7 MBq, 1 min; tissue uptake = 10.7 ± 5.65 %ID/g
